# Experimental data pooled from the literature.
# Each line is one published result; not all experiments were run side by side. ± gives the spread as reported.
# Sequence of UniProt Q9H2X6 (whole entry, looked up): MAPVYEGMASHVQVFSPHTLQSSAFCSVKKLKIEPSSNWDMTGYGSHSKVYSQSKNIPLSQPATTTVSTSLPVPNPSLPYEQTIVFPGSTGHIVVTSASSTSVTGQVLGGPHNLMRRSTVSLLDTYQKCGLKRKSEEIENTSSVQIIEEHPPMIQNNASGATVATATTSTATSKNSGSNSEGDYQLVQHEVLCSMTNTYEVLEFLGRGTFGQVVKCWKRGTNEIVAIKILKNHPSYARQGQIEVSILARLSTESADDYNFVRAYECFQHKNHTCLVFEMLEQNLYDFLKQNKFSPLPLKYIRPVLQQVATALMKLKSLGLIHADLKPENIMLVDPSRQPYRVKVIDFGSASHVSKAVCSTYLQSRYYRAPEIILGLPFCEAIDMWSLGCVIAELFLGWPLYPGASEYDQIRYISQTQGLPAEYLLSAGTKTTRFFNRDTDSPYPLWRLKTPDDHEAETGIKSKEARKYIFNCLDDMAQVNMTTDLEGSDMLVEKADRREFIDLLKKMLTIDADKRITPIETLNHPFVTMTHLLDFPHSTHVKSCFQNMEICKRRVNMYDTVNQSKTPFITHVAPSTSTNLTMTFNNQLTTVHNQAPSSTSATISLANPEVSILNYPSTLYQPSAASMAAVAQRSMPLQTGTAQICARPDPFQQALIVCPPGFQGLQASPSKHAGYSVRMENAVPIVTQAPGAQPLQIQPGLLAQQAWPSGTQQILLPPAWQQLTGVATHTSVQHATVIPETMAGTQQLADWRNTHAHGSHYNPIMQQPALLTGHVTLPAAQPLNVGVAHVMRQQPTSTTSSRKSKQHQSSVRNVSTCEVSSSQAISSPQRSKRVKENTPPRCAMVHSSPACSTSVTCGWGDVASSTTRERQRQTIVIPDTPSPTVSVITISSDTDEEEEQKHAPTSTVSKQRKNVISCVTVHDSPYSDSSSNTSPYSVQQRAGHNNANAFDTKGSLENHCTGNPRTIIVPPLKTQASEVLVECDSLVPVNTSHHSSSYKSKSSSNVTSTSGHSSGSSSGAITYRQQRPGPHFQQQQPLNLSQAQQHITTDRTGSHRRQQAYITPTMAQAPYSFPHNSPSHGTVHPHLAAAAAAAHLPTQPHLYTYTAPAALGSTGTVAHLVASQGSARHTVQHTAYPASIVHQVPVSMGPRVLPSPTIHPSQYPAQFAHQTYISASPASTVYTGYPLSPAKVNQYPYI
# Sequence of UniProt Q8WU58 (whole entry, looked up): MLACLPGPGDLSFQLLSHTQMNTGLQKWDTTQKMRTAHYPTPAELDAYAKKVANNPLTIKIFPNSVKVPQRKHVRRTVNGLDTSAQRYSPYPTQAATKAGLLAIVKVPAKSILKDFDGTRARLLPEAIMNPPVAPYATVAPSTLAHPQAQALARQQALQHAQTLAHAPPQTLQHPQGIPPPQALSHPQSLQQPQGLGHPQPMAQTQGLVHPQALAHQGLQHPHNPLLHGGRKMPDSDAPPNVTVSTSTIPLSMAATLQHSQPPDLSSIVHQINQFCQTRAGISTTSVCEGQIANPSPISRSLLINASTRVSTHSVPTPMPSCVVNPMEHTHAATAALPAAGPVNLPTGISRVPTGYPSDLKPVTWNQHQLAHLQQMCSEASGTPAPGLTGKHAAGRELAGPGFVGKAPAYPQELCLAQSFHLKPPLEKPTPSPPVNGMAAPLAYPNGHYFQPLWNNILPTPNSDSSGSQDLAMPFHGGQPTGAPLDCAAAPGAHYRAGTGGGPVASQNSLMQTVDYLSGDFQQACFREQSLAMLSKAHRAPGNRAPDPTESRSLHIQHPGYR
SMILES,tested on,test,test system,conditions,scale,endpoint,result
C[C@@H](O)[C@@H](CO)NC(=O)[C@@H](CCCNC(=N)N)NC(=O)[C@@H]1CCCN1C(=O)[C@@H]1CSSC[C@H](NC(=O)[C@H](Cc2ccccc2)NC(=O)CN2CCN(CC(=O)O)CCN(CC(=O)O)CCN(CC(=O)O)CC2)C(=O)N[C@@H](Cc2ccc(O)cc2)C(=O)N[C@@H](Cc2ccccc2)C(=O)N[C@@H](CCC(N)=O)C(=O)N[C@@H](CC(N)=O)C(=O)N1 [gallium-68 labelled],,,"Wistar rat, healthy, Parotid gland","intravenous, 8 MBq, 30 min, mean",,tissue uptake,0.22 %ID/g
COc1c(CCC[P+](c2ccccc2)(c2ccccc2)c2ccccc2)cc2c(c1OC)OCO2.[I-],OVCAR-3,SRB,,,,TGI,-4.74 log M
CC(C)(c1ccccc1)c1cc(-n2nc3ccccc3n2)c(O)c(C(C)(C)c2ccccc2)c1,,exposure assessment,"human, age 16-21 years","concentration not given, spray sunscreen, 95th percentile",,"daily dermal uptake, percentile",50.6 ng/kg body weight/day
CC[C@H](C)[C@@H]1NC(=O)[C@@H]2CCCN2C(=O)[C@H](CC(C)C)NC(=O)[C@H](CC(C)C)NC(=O)CNC(=O)[C@@H](NC(=O)[C@@H](NC(=O)[C@H](CC(=O)O)NC(=O)CNC(=O)[C@@H](NC(=O)[C@H](C)NC(=O)CNC(=O)[C@H](CCCCN)NC(=O)[C@H](CC(C)C)NC(=O)[C@H](CC(C)C)NC(=O)[C@H](CCCCN)NC(=O)CNC(=O)[C@@H](NC(=O)[C@@H](N)CC(C)C)C(C)C)C(C)C)C(C)C)CSSC[C@@H](C(=O)O)NC1=O,,"RNA-seq, item: Ighg2b mRNA","mouse traumatic brain injury, frontal cortex and hippocampus",dose not given,reference: TBI plus compound vs TBI,log2 fold change,-3.07
C[C@H]1CN(c2n[nH]c3nc(N[C@H]4CC[C@H](NS(=O)(=O)CCC(F)(F)F)CC4)ncc23)CCO1,"Protein FAM222B (Homo sapiens, UniProt Q8WU58)","competitor, Kinobeads competition","HEK293, K562, placenta extract",4 µM,reference: vehicle,remaining binding,24%
CC(=O)c1c(C)c2cnc(Nc3ccc(C4CCN(CCS(C)(=O)=O)CC4)cn3)nc2n(C2CCCC2)c1=O,,,HR+/HER2- advanced breast cancer patients,"oral, dose not given",,patients with any TRAE,94.7%
C=CC(=O)N[C@H]1C=C(C)c2c(-c3cnc4ccccc4c3)c3c(N)ncnc3n2C1,,two-compartment PK model,"mouse, plasma",oral,,clearance,26.2 mL/min
CCCC1CCC(C2CCC(c3ccc(F)c(F)c3)CC2)CC1 (stereo not drawn),,,"rat, placenta","5000 ng/mL in perfusate, high dose, mixture of 21 LCMs",,median placental accumulation,356 ng/g
CC(C)c1nc(N(C)S(C)(=O)=O)nc(-c2ccc(F)cc2)c1/C=C/[C@@H](O)C[C@@H](O)CC(=O)O,,,healthy human subjects,"oral, dose not given, study CL-0537 safety set",,incidence of breast disorders,3.6%
CC[C@H](C)[C@H](NC(=O)[C@H](Cc1ccccc1)NC(=O)[C@H](CCC(=O)O)NC(=O)[C@H](CCCNC(=N)N)NC(=O)[C@H](C)NC(=O)[C@H](C)NC(=O)[C@H](CCC(N)=O)NC(=O)[C@H](CCC(=O)O)NC(=O)[C@H](CCC(=O)O)NC(=O)[C@H](CC(C)C)NC(=O)[C@H](Cc1ccc(O)cc1)NC(=O)[C@H](CO)NC(=O)[C@H](CO)NC(=O)[C@@H](NC(=O)[C@H](CC(=O)O)NC(=O)[C@H](CO)NC(=O)[C@@H](NC(=O)[C@H](Cc1ccccc1)NC(=O)[C@@H](NC(=O)CNC(=O)[C@H](CCC(=O)O)NC(=O)[C@H](C)NC(=O)CCc1c[nH]cn1)[C@@H](C)O)[C@@H](C)O)C(C)C)C(=O)N[C@@H](C)C(=O)N[C@@H](Cc1c[nH]c2ccccc12)C(=O)N[C@@H](CC(C)C)C(=O)N[C@H](C(=O)N[C@@H](CCCNC(=N)N)C(=O)NCC(=O)N[C@@H](CCCNC(=N)N)C(=O)N[C@@H](CCCCNC(=O)COCCOCCNC(=O)COCCOCCNC(=O)CC[C@H](NC(=O)CCCCCCCCCCCCCCCCC(=O)O)C(=O)O)C(=O)NCC(=O)NCC(=O)N[C@@H](CO)C(=O)N[C@@H](CCCCNc1c(NCCCCCN(O)C(=O)CCC(=O)NCCCCCN(O)C(=O)CCC(=O)NCCCCCN(O)C(C)=O)c(=O)c1=O)C(=O)O)C(C)C [zirconium-89 labelled],,ex vivo gamma counting,"rat, brain","subcutaneous, 3 nmol/kg, 24 h, with: [89Zr]-labelled peptide",,tissue uptake,0.02 %ID/g
Clc1cc2c(cc1Cl)Oc1c(ccc(Cl)c1Cl)O2,,,whole cow milk,20 nM nominal,,dose fraction in skim milk,7.32%
CC(C)(O)c1cc(Nc2cc(Oc3cn(C4CC4)nc3C3CCOCC3)ccn2)ccn1,,Cough,"patients with advanced cancer, Japanese cohort","oral, dose not given, grade ≥3",,treatment-related adverse events,0%
COc1cc(Nc2ncc(F)c(Nc3ccc4c(n3)NC(=O)C(C)(C)O4)n2)cc(OC)c1OC,P2X purinergic receptor,,,,,IC50,> 10 µM
COc1cc2c(Oc3ccc4[nH]c(C)cc4c3F)ccnc2cc1OCC1(N)CC1,,,paediatric recurrent refractory sarcoma,"concentration not given, whole group",,grade 1 or 2 Thrombocytopenia,23.5%
COc1ccc(C[C@@H]2NC(=O)[C@H]([C@@H](C)O)NC(=O)[C@@H]3[C@@H]4CCN3C(=O)[C@@H]3Cc5cn(c6ccc(F)cc56)CCCCCCN(Cc5ccc(cc5)CCNC(=O)[C@]5(C)CCCN5C2=O)C(=O)CCC(=O)N[C@@H](C)C(=O)N[C@H](CNC(=O)CCCCC[N+](C)(C)C)C(=O)N[C@@H](Cc2cccc(c2)CNC(=O)CO4)C(=O)N3)cc1,,item: Diarrhea,humans,"concentration not given, Study-003",,participants with adverse event,9.7%
O=C1NC(=O)C(c2ccccc2)(c2ccccc2)N1,,PAMPA,,"200 µM, 5 h, pH 7.4",,membrane retention,17.2%
Nc1ncnc2c1ncn2[C@@H]1O[C@@H]2COP(=O)([S-])O[C@@H]3[C@H](O)[C@@H](COP([O-])(=S)O[C@H]2[C@H]1O)O[C@H]3n1cnc2c(N)ncnc21.[Na+].[Na+] (stereo partly drawn),,,"non-tumor-bearing mice, serum","intravenous, 1 mg/kg, toxicity study",,amylase,886 ± 136 U/L
CC(=O)NCC(=O)NCC(=O)N[C@H](C(=O)N[C@@H](Cc1ccc(O)cc1)C(=O)N[C@@H](CO)C(=O)N[C@H]1CSSC[C@@H](C(=O)N[C@@H](CCCNC(=N)N)C(=O)N2CCC[C@H]2C(=O)N[C@@H](CCC(N)=O)C(=O)N[C@@H](CCCNC(=N)N)C(=O)NCC(=O)NCCC(=O)N[C@@H](CCCCNC(=O)CN(CC(=O)NCCCC[C@H](NC(=O)CCNC(=O)CNC(=O)[C@H](CCCNC(=N)N)NC(=O)[C@H](CCC(N)=O)NC(=O)[C@@H]2CCCN2C(=O)[C@H](CCCNC(=N)N)NC(=O)[C@@H]2CSSC[C@H](NC(=O)[C@H](CO)NC(=O)[C@H](Cc3ccc(O)cc3)NC(=O)[C@@H](NC(=O)CNC(=O)CNC(C)=O)[C@@H](C)O)C(=O)N[C@@H](Cc3c[nH]cn3)C(=O)N[C@@H](Cc3ccccc3)C(=O)NCC(=O)N[C@@H](C)C(=O)N[C@@H](CC(C)C)C(=O)N[C@@H]([C@@H](C)O)C(=O)N[C@@H](Cc3c[nH]c4ccccc34)C(=O)N[C@@H](C(C)C)C(=O)N2)C(N)=O)C(=O)CCN)C(N)=O)NC(=O)[C@H](C(C)C)NC(=O)[C@H](Cc2c[nH]c3ccccc23)NC(=O)[C@H]([C@@H](C)O)NC(=O)[C@H](CC(C)C)NC(=O)[C@H](C)NC(=O)CNC(=O)[C@H](Cc2ccccc2)NC(=O)[C@H](Cc2c[nH]cn2)NC1=O)[C@@H](C)O,,MSD immunoassay,"BALB/c mice, healthy female, serum","subcutaneous, 0.08 mg/kg, 0.5 h, LLOQ 2.0 ng/mL",,serum concentration,not detected
Cn1cc(-c2nc(N[C@@H]3CCCC[C@@H]3N)c(F)c3c2C(=O)NC3)cn1,,item: Retinal haemorrhage,patients with relapsed or refractory AML,"oral, 80 mg twice daily",,hemorrhagic adverse events,33%
CN1CCN(S(=O)(=O)c2cc([N+](=O)[O-])ccc2N(CCOS(C)(=O)=O)CCOS(C)(=O)=O)CC1,,,"NSG mice female, plasma","intraperitoneal, 25 mg/kg, 1.5 h",,concentration,180 nM
COc1ccc(N2C(=O)N(c3c(C)cccc3Cl)Cc3cnc(Nc4ccc(C5CCN(C)CC5)cc4OC)nc32)nc1,"HIPK2 (Homo sapiens, UniProt Q9H2X6)",kinase activity,,0.5 µM,,inhibition,4%
